Assay results of several laboratories.
Parts stem from different laboratories: compare values within a part only. Positions count from the first letter of the parent shown.

Sample 1
Target: ABI1, truncated, D143A, DHFR fusion (Arabidopsis thaliana)
Technique: DHFR PCA, deep sequencing
Medium: yeast
Notes: methotrexate growth selection, single substitutions
Added: (+)-ABA 710 µM
Reference: wild-type fitted maximum
Direction: higher = stronger binding
Starting sequence: PYL1, truncated, DHFR fusion (Arabidopsis thaliana); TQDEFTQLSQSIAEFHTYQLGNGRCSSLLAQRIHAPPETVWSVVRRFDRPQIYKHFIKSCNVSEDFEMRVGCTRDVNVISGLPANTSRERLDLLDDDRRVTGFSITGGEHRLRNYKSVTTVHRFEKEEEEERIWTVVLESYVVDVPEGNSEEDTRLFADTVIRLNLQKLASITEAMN; partner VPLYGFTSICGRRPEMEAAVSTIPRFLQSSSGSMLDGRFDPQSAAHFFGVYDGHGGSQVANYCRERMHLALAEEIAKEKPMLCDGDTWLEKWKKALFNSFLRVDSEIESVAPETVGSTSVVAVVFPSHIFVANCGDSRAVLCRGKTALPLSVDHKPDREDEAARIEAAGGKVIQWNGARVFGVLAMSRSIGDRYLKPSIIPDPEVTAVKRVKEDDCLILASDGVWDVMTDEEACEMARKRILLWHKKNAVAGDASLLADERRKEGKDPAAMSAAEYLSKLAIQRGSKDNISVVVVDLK
| Variant | relative binding score [%] |
| --- | --- |
| L94I | 106 |
| V137E | -6.98 |
| A13V | 100 |
| E14T | 86.1 |
| R32S | 92.2 |
| G107A | 104 |
| H16K | 32.3 |
| R49Q | 105 |
| E64A | 105 |
| L82N | 30.1 |
| V136H | 86 |
| L29E | 45 |
| N61T | 103 |
| H122G | 64.2 |
| E38Y | 81.3 |
| T17C | 92.8 |
| L8R | 91.8 |
| S59F | 93.6 |
| L164T | 107 |

Sample 2
Target: CCNE2, cyclin fold, Cln2 fusion (human)
Technique: yeast growth competition, sequencing
Medium: yeast
Notes: weak parent motif
Reference: not given
Direction: higher = stronger binding
Starting sequence: KIF20B docking peptide (human); KRAKRKLYTSEIS
| Variant | normalised enrichment score |
| --- | --- |
| KAAKRKLYTSEIS [R2A] | 0.531 |
| KRAKRKLYTSAIS [E11A] | 1.05 |
| KRAKRALYTSEIS [K6A] | 0.301 |
| ARAKRKLYTSEIS [K1A] | 0.89 |
| KRAKRKLYTSEIA [S13A] | 0.713 |
| KRAKRKAYTSEIS [L7A] | 0.372 |

Sample 3
Target: RNA binding protein fox-1 homolog 2, RRM domain, GST-SBP tag (RBFOX2, Homo sapiens, UniProt O43251-10, residues 100-194)
Technique: RNA Bind-n-Seq
Molecule type: RNA
Medium: in vitro
Concentration: 365 nM
Notes: natural RNA segment, single round, ends assumed
Reference: no-protein control
Direction: higher = stronger binding
Residues (chain): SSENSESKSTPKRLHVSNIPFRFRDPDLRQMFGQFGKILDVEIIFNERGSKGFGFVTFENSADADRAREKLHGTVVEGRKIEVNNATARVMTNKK
| Strand | RBNS enrichment (R) |
| --- | --- |
| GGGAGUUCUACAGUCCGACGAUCGAGCAAUGCUACAUUGUUGUAAAAAGAAUUGCUAUUGUAAAAAAGCACUGUGUGACUUUGUGAAGGACACUGCCUUGGAAAUGUUGACUGACGUUUAUGCCUGGUGAUAGUGGAAUUCUCGGGUGCCAA | 0.531 |
| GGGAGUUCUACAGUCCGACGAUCCUAACAGAGAAGGGUAGACAGUUUGUGUUAAAUGUUGGCAUUUACUUGUAUUGACCAAAGUUUUGCAGCUCUACUAUAUUCUGUGCUCAGGACUAAAAUGCUGUUAAUUUUGGAAUUCUCGGGUGCCAA | 0.475 |
| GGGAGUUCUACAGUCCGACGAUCUGCUGCCUCUAGACCUCGCCCACGUGGACAGACGCUUCCUGUCAUGGCUCUGCCUAGAGAUGUUCCUUGGGGUCUGUGAGGUUCUGUCAACUGCUAGUGCUAACGCUGUCUGGAAUUCUCGGGUGCCAA | 0.62 |
| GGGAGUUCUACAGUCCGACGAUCAUAGUCUUUAAAAAUCAGUCCCAGAAGAGAGCAUUGCUUUACUGAGGGGCCUUCUCAGUGCAGUGUCCAUGUGCCUCUAGCUCCCGUUGGUGUGGAGGGUACUGCCUUGGUGGAAUUCUCGGGUGCCAA | 0.248 |
| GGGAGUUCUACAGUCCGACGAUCCACGUGCUCCGUGGUACUUAGAGCCCUGGGGGCCCCGCUCGGACUCCGGGUCUCCCUAGGAUAUGCCCCAGUAGCAUUUGCUGUGUAGUCUGUGUGUGAAAUUUGGGCAUUGGAAUUCUCGGGUGCCAA | 0.418 |
| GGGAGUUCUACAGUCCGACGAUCUAUGAGUGACAGAGCUUUCUGUGUAUAAUUUGUCUAAAUAAUUUGUCUAAUAAAAAUGUUUUCUAAACUUGCUCUCAUACUAUUGAAGUCUUAACUGUAAGAUUUGAAAAUGGAAUUCUCGGGUGCCAA | 1.06 |
| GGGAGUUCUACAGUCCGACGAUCGGGCUUGGUUGAGGGAACGGCUUCUGGCUGUAUGGCUGCAUGUGACAAGCCACGUCCCCUCCCACCUCUCCCCAAACCCCUGCAUCCCUGUAUUCACACGGGUCACUCUGUGGAAUUCUCGGGUGCCAA | 8.48 |
| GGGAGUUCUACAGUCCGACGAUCCUGGCUGAGUAUGCCAUCCAGAGCAAGCGAUGCCCUCCCAGGUCAGUCUGGGGCACAAGCUGAGCCGCUGACUAGCAAUGCCUACAGCCUUUCCCAAUGCCCUUGCCUGCUGGAAUUCUCGGGUGCCAA | 1.01 |

Sample 4
Target: Transcription factor SOX-2, HMG box (Sox2, Mus musculus, UniProt P48432, residues 41-119)
Chain of UniProt P48432 (41-119, looked up): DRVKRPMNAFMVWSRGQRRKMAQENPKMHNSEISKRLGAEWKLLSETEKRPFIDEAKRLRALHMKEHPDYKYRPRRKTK
Technique: Spec-seq
Molecule type: double-stranded DNA, one strand shown
Medium: in vitro
Concentration: not given
Notes: whole probe, mean of replicates
Reference: not given
Direction: lower = stronger binding
All sequences stand within: GAGTCGTCTCGTCAGCAC … CCGTAGAGCACTCAGGTC
| Strand | relative binding energy |
| --- | --- |
| ACCGGTT | 0.885 ln ratio |
| CATCGCC | 0.992 ln ratio |
| CCGCGTT | 1.43 ln ratio |
| CCTAGTT | 0.502 ln ratio |
| CGACGTT | 1.36 ln ratio |
| CATGACT | 0.346 ln ratio |
| CATAGGG | -0.779 ln ratio |
| CATTACA | -0.27 ln ratio |
| CATCCCG | 1.08 ln ratio |
| CGGAGTT | 1.36 ln ratio |
| TTATGTT | -0.384 ln ratio |
| AGTGGTT | -0.0182 ln ratio |
| AACCGTT | 0.225 ln ratio |
| CATAGCC | -0.232 ln ratio |
| AGTCGTT | 0.402 ln ratio |
| GATGGTT | 0.649 ln ratio |
| CTCGGTT | 1.21 ln ratio |
| CATACCC | 0.521 ln ratio |
| CATCAAA | 0.0953 ln ratio |

Repeated from above (sample 2):
| Variant | normalised enrichment score |
| --- | --- |
| KAAKRKLYTSEIS [R2A] | 0.531 |
| KRAKRALYTSEIS [K6A] | 0.301 |
| KRAKRKAYTSEIS [L7A] | 0.372 |
| KRAKRKLYTSAIS [E11A] | 1.05 |
| ARAKRKLYTSEIS [K1A] | 0.89 |
| KRAKRKLYTSEIA [S13A] | 0.713 |
